Results from different studies.
Organism: Klebsiella pneumoniae

| SMILES | assay | test system | setting | MIC |
| --- | --- | --- | --- | --- |
| CC(C)OCCNc1nc(Cl)c2c(c1O)C(=O)C1=C(O)[C@]3(O)C(=O)C(C(N)=O)=C(O)[C@@H](N(C)C)[C@@H]3C[C@@H]1C2.Cl.Cl.Cl |  | tet(A)-carrying |  | > 32 µg/mL |
| CC[C@H](C)CCCCC(=O)N[C@@H](CCN)C(=O)N[C@H](C(=O)N[C@@H](CCN)C(=O)N[C@H]1CCNC(=O)[C@H]([C@@H](C)O)NC(=O)[C@H](CCN)NC(=O)[C@H](CCN)NC(=O)[C@H](CC(C)C)NC(=O)[C@@H](CC(C)C)NC(=O)[C@H](CCN)NC1=O)[C@@H](C)O | broth microdilution | ATCC 43816 wild type, cation-adjusted MHB |  | 1 µg/mL |
| NCC[C@H](O)C(=O)N[C@@H]1C[C@H](N)[C@@H](O[C@H]2O[C@H](CN)[C@@H](O)[C@H](O)[C@H]2O)[C@H](O)[C@H]1O[C@H]1O[C@H](CO)[C@@H](O)[C@H](N)[C@H]1O | broth microdilution | KPC-100 producing |  | > 128 µg/mL |
| CC(=O)N[C@@H](CCCCN)C(=O)N[C@@H](CCCCN)C(=O)N[C@@H](CC(C)C)C(=O)N[C@@H](C)C(=O)N[C@@H](CCCCN)C(=O)N[C@@H](CC(C)C)C(=O)N[C@@H](CC(C)C)C(=O)N[C@@H](CCCCN)C(=O)N[C@@H](CCCCN)C(=O)N1CCC[C@H]1C(=O)N[C@@H](CC(C)C)C(=O)N[C@@H](CCCCN)C(=O)N[C@@H](CC(C)C)C(=O)N[C@@H](CC(C)C)C(=O)N[C@@H](CCCCN)C(N)=O | broth microdilution | ATCC 700603 | 18 h, 37 °C, compound alone | > 80 µM |
| CC[C@H](C)[C@H](NC(=O)CN)C(=O)NCC(=O)N[C@@H](C)C(=O)N[C@H](C(=O)N[C@@H](CC(C)C)C(=O)N[C@@H](CCCCN)C(=O)N[C@H](C(=O)N[C@@H](CC(C)C)C(=O)N[C@H](C(=O)N[C@H](C(=O)NCC(=O)N[C@@H](CC(C)C)C(=O)N1CCC[C@H]1C(=O)N[C@@H](C)C(=O)N[C@@H](CC(C)C)C(=O)N[C@H](C(=O)N[C@@H](CO)C(=O)N[C@@H](Cc1c[nH]c2ccccc12)C(=O)N[C@H](C(=O)N[C@@H](CCCCN)C(=O)N[C@@H](CCCNC(=N)N)C(=O)N[C@@H](CCCCN)C(=O)N[C@@H](CCCNC(=N)N)C(=O)N[C@@H](CCC(N)=O)C(=O)N[C@@H](CCC(N)=O)C(N)=O)[C@@H](C)CC)[C@@H](C)CC)[C@@H](C)O)[C@@H](C)O)C(C)C)C(C)C | broth microdilution, MH medium | NCCP 16054 | 16 h, 37 °C, growth inhibition over 99% | 16 µM |
| CC[C@H](C)[C@H](NC(=O)[C@H](Cc1ccc(O)cc1)NC(=O)[C@@H](NC(=O)[C@H](Cc1ccc(O)cc1)NC(=O)[C@@H]1CCCN1C(=O)[C@@H](NC(=O)[C@H](C)N)[C@@H](C)CC)[C@@H](C)CC)C(=O)N[C@@H](Cc1c[nH]c2ccccc12)C(=O)N[C@@H](CCCNC(=N)N)C(=O)N[C@@H](CC(C)C)C(=O)N[C@@H](CC(C)C)C(=O)N[C@@H](CCCNC(=N)N)C(=O)N[C@@H](CCCCN)C(=O)NCC(=O)O | broth microdilution | ATCC 700603 | 18 h, 37 °C | 15 µM |
| COc1ncc(O)c2c1C[C@H]1C[C@H]3[C@H](N(C)C)C(O)=C(C(N)=O)C(=O)[C@@]3(O)C(O)=C1C2=O.Cl.Cl |  | tet(A)-carrying |  | > 32 µg/mL |
| CC[C@H](C)[C@H](N)C(=O)N[C@@H](CC(C)C)C(=O)NCC(=O)N[C@@H](CCCNC(=N)N)C(=O)N[C@H](C(=O)N[C@@H](Cc1c[nH]c2ccccc12)C(=O)N[C@@H](CCCCN)C(=O)NCC(=O)N[C@H](C(=O)N[C@@H](CCCCN)C(=O)N[C@@H](CC(=O)O)C(=O)N[C@H](C(=O)N[C@@H](CC(C)C)C(N)=O)[C@@H](C)CC)[C@@H](C)CC)[C@@H](C)CC | broth microdilution | ATCC 27736, Mueller-Hinton broth | 16 h, 37 °C | 50 µM |
| COc1ccc2ccc(O)c(/C=N/[C@H]3CCCC[C@H]3/N=C/c3c(O)cccc3F)c2c1 | bacterial growth, broth microdilution | carbapenem-resistant clinical isolate |  | > 40 µM |
| CN(C)[C@@H]1C(O)=C(C(N)=O)C(=O)[C@@]2(O)C(O)=C3C(=O)c4c(O)cccc4[C@@](C)(O)[C@H]3C[C@@H]12 | broth microdilution | ATCC 43816 acrAB overexpressor | together with: colistin 0.5 mg/L | 4 µg/mL |
| CC(=O)N[C@@H](CCCCN)C(=O)N[C@@H](CCCCN)C(=O)N[C@@H](CC(C)C)C(=O)N[C@@H](CC(C)C)C(=O)N[C@@H](CCCCN)C(=O)N[C@@H](CC(C)C)C(=O)N[C@@H](CC(C)C)C(=O)N[C@@H](CCCCN)C(=O)N[C@@H](CCCCN)C(=O)N1CCC[C@H]1C(=O)N[C@@H](CC(C)C)C(=O)N[C@@H](CCCCN)C(=O)N[C@@H](CC(C)C)C(=O)N[C@@H](CC(C)C)C(=O)N[C@@H](CCCCN)C(N)=O | broth microdilution | ATCC 700603 | 18 h, 37 °C, compound alone | > 80 µM |
| CCCc1nc(N(C)C)c2c(c1O)C(=O)C1=C(O)[C@]3(O)C(=O)C(C(N)=O)=C(O)[C@@H](N(C)C)[C@@H]3C[C@@H]1C2.Cl.Cl |  | tet(A)-carrying |  | > 32 µg/mL |
| CC1=C[C@@H]2CN(C(=O)N2OS(=O)(=O)O)[C@@H]1C(N)=O |  | ATCC BAA-2146, ESBL and NDM-positive | compound alone | > 128 µg/mL |
| CN(C)c1ccc(O)c2c1C[C@H]1C[C@H]3[C@H](N(C)C)C(O)=C(C(N)=O)C(=O)[C@@]3(O)C(O)=C1C2=O | broth microdilution | ATCC 43816 acrAB overexpressor |  | 2 µg/mL |
| C[C@@H](O)[C@H]1C(=O)N2C(C(=O)O)=C(S[C@@H]3CN[C@H](C(=O)N(C)C)C3)[C@H](C)[C@H]12 | broth microdilution | parental, KPC-33 |  | 4 µg/mL |
| CC(C)C[C@H](NC(=O)[C@H](C)NC(=O)[C@@H](NC(=O)[C@H](CCCNC(=N)N)NC(=O)[C@H](CC(C)C)NC(=O)[C@H](Cc1c[nH]c2ccccc12)NC(=O)[C@@H]1CCCN1C(=O)[C@@H](N)CCCCN)C(C)C)C(=O)N[C@@H](CS)C(=O)N1CCC[C@H]1C(=O)NCC(=O)O | broth microdilution | B |  | 64 µM |
| CC(=O)N[C@@H](CCCCN)C(=O)N[C@@H](CCCCN)C(=O)N[C@@H](CC(C)C)C(=O)N[C@@H](CC(C)C)C(=O)N[C@@H](CCCCN)C(=O)N[C@@H](CC(C)C)C(=O)N[C@@H](CC(C)C)C(=O)N[C@@H](C)C(=O)N[C@@H](CCCCN)C(=O)N1CCC[C@H]1C(=O)N[C@@H](CC(C)C)C(=O)N[C@@H](CCCCN)C(=O)N[C@@H](CC(C)C)C(=O)N[C@@H](CC(C)C)C(=O)N[C@@H](CCCCN)C(N)=O | broth microdilution | ATCC 700603 | 18 h, 37 °C, compound alone | > 80 µM |
| CC(C)C[C@H](NC(=O)[C@@H](NC(=O)[C@H](CCCNC(=N)N)NC(=O)[C@H](CCC(N)=O)NC(=O)[C@H](Cc1ccccc1)NC(=O)[C@H](Cc1ccc(O)cc1)NC(=O)[C@H](CC(N)=O)NC(=O)[C@H](Cc1c[nH]c2ccccc12)NC(=O)[C@@H](NC(=O)[C@H](CCCNC(=N)N)NC(=O)[C@H](CCCCN)NC(=O)[C@@H](N)Cc1ccccc1)C(C)C)C(C)C)C(=O)N[C@H](C(=O)N[C@@H](CCCCN)C(=O)N[C@@H](CCCCN)C(=O)N[C@@H](Cc1ccc(O)cc1)C(=O)N[C@@H](C)C(N)=O)C(C)C | broth dilution | ATCC 700603 |  | 12.5 µM |
| CC1(C)CC[C@]2(C(=O)O)CC[C@]3(C)C(=CC[C@@H]4[C@@]5(C)CC[C@H](O)C(C)(C)[C@@H]5CC[C@]43C)[C@@H]2C1 |  | QD-KP2, NDM-1 |  | 512 µg/mL |
| C[C@@H](O)[C@H]1C(=O)N2C(C(=O)O)=C(SCCN=CN)C[C@H]12 |  | NCCP 15864 carbapenem-resistant, Mueller-Hinton broth | 16 h, 37 °C | 8 µM |
| CC[C@H](C)[C@H](NC(=O)[C@H](C)NC(=O)[C@H](CCCCN)NC(=O)[C@H](CCCCN)NC(=O)[C@H](CCCCN)NC(=O)[C@H](CCCCN)NC(=O)[C@H](CCCCN)NC(=O)[C@@H](N)CCCCN)C(=O)N[C@@H](CO)C(=O)NCC(=O)N[C@@H](CO)C(=O)N[C@@H](CC(C)C)C(=O)N[C@H](C(=O)N[C@H](C(=O)N[C@@H](CC(C)C)C(=O)N[C@@H](Cc1ccccc1)C(=O)NCC(=O)N[C@@H](Cc1ccc(O)cc1)C(N)=O)[C@@H](C)O)C(C)C | broth microdilution | ATCC 13883 | highest value reported | 64 µM |
| CC(=O)N[C@@H](CCCCN)C(=O)N[C@@H](CCCCN)C(=O)N[C@@H](C)C(=O)N[C@@H](CC(C)C)C(=O)N[C@@H](CCCCN)C(=O)N[C@@H](CC(C)C)C(=O)N[C@@H](C)C(=O)N[C@@H](CCCCN)C(=O)N[C@@H](CCCCN)C(=O)N1CCC[C@H]1C(=O)N[C@@H](CC(C)C)C(=O)N[C@@H](CCCCN)C(=O)N[C@@H](CC(C)C)C(=O)N[C@@H](CC(C)C)C(=O)N[C@@H](CCCCN)C(N)=O | broth microdilution | ATCC 700603 | 18 h, 37 °C, compound alone | > 80 µM |
| C[C@@H](O)[C@H]1C(=O)N2C(C(=O)O)=C(S[C@@H]3CN[C@H](C(=O)N(C)C)C3)[C@H](C)[C@H]12 |  | 1188718, multidrug-resistant |  | 0.03 µg/mL |
| CC[C@H](C)[C@H](NC(=O)[C@H](CCCCN)NC(=O)[C@@H](NC(=O)[C@@H](NC(=O)[C@H](CC(C)C)NC(=O)[C@H](CCCNC(=N)N)NC(=O)[C@@H](NC(=O)[C@H](CC(C)C)NC(=O)[C@H](CCCNC(=N)N)NC(=O)CNC(=O)[C@H](Cc1ccccc1)NC(=O)[C@@H](N)CCCNC(=N)N)[C@@H](C)CC)[C@@H](C)CC)C(C)C)C(=O)N[C@@H](C)C(=O)N[C@@H](CCCNC(=N)N)C(=O)N[C@@H](CCCNC(=N)N)C(=O)N[C@@H](C)C(=O)N[C@@H](Cc1c[nH]cn1)C(=O)N[C@@H](CCCNC(=N)N)C(=O)N[C@@H](C)C(=O)N[C@@H](CCCNC(=N)N)C(=O)N[C@@H](CO)C(=O)N[C@@H](C)C(=O)N[C@H](C(=O)N[C@@H](CCCCN)C(=O)N[C@@H](C)C(=O)N[C@@H](C)C(=O)N[C@@H](CO)C(=O)N[C@@H](CC(N)=O)C(=O)N[C@H](C(=O)N[C@@H](C)C(=O)N[C@@H](CCC(=O)O)C(=O)N[C@@H](CC(C)C)C(=O)N[C@@H](C)C(=O)N[C@@H](Cc1c[nH]cn1)C(=O)NCC(=O)N[C@@H](CCC(=O)O)C(=O)O)C(C)C)C(C)C | bacterial growth, broth microdilution | cation-adjusted Mueller Hinton broth | 18 h, 37 °C | 4 µM |

Excerpt of the above:
| SMILES | assay | test system | setting | MIC |
| --- | --- | --- | --- | --- |
| C[C@@H](O)[C@H]1C(=O)N2C(C(=O)O)=C(SCCN=CN)C[C@H]12 |  | NCCP 15864 carbapenem-resistant, Mueller-Hinton broth | 16 h, 37 °C | 8 µM |
| CN(C)[C@@H]1C(O)=C(C(N)=O)C(=O)[C@@]2(O)C(O)=C3C(=O)c4c(O)cccc4[C@@](C)(O)[C@H]3C[C@@H]12 | broth microdilution | ATCC 43816 acrAB overexpressor | together with: colistin 0.5 mg/L | 4 µg/mL |
